Assay results of several laboratories.
Parts stem from different laboratories: compare values within a part only.

Sample 1 — method: RNA Bind-n-Seq; molecule type: RNA; sample: in vitro; concentration: not given; setting: RNA with constant flanks, ends assumed; baseline: input RNA pool; reading: higher = stronger binding
Target: RING finger protein unkempt homolog, zinc fingers 1-6, GST-SBP tag (UNK, Homo sapiens, UniProt Q9C0B0, residues 30-357)
Chain of UniProt Q9C0B0 (30-357, looked up): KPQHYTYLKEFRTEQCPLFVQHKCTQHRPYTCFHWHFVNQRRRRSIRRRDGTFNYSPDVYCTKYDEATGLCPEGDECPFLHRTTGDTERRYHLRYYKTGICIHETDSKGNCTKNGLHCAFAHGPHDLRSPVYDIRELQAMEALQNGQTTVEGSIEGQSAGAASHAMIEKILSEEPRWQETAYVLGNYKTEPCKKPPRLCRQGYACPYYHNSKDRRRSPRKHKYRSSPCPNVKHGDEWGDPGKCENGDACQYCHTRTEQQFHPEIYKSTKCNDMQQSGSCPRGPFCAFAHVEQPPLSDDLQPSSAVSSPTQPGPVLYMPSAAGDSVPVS
Constant ends, left off below: GGGAGUUCUACAGUCCGACGAUC … CAACAGAGGAUUGAGCAUCA
`GGAAGUGGAAGAUCCUGUGGAUUCGGAUGGAGAAGUCCUGGGCUUUGAGAACCUCGUCUUCCGCAUUUUUGAGUUUGUCCAUGCCCUACUGGAGAACAGCAAGUUCAAAAGCACCGUUAA` gave a bound/input enrichment of 0.234 ratio.
The bound/input enrichment of `CUACCUUCUCGUCUUUAUAGUGCCACAAUUUAUACAGUUCUGUGUUUGACCCGUCGUCUUCACCGCCUGCAGUUCUUGCCAUUGGCUCCGUUAGGUUUGUCUUCACCCACCAGCUUCAUU` is reported as 0.656 ratio.
For `CAAAAUUACCAAGAAUACAAUCUGGCCAACAUCAUCUACUACUCUCUGAAGGAGUCCACCACCCGUGAGCAGAGUGCCAGGAUGACAGCCAUGGACAAUGCCAGCAAGAAUGCUUCUGAG`, the bound/input enrichment was 0.171 ratio.
With `UAAUAAAACCAUUUUAUCUUUAAAAUAGUAAGUAGAAAUCUAAAUAAAUUUUAUGAGCCGGCAGUAACUUUUCUGUUUAGUGAGUGUACUUGCUUUGCUCUUAUCAUUGGUCUUACCUUU` the bound/input enrichment was 7.05 ratio.
With `UUUGACAAGGAUGGCAAUGGUUAUAUCAGUGCAGCAGAACUACGUCACGUCAUGACAAACUCCGGAGAAAAACUAACAGAUGAAGAAGUAGAUGAAAUGAUCAGAGAAGCAGAUAUUGAU` the bound/input enrichment was 0.642 ratio.
`CUCUGUCCUGAAUGUGAGAAUCCUGAAACAGAUUUGCAUGUCAAUCCAAAGAAGCAAACAACCGGUAAUUCUUGUAAAGCCUGUGGCUAUCGAGGCAUGCUUGACACACAUCAUAAACUC` has a bound/input enrichment of 0.175 ratio.
`UUCUACGUGAAUAGGAUUUUGUGGCUGGCCAGAUACACUGCAUCAUCUUUUUCAUCAUUUUCCGUUCAACUUUUUCAAGUGGUUUUAAUGAAGCUCAGUUAUGAAUCAGAAAAUUACAAA` has a bound/input enrichment of 0.327 ratio.
`CUUCAUGUUUCUGAAAAUGUGAUAUUCACAGAUGUGAAUUCUAUACUUCGCUACUUGGCCCGAGUUGCAACUACAGCUGGGUUAUAUGGCUCUAAUCUGAUGGAACAUACUGAGAUUGAU` gave a bound/input enrichment of 0.127 ratio.

Sample 2 — method: protein binding microarray; molecule type: double-stranded DNA, one strand shown; sample: in vitro; concentration: not given; baseline: not given; reading: higher = stronger binding
Target: Histone acetyltransferase KAT6A, winged helix 1, GST fusion (KAT6A, Homo sapiens, UniProt Q92794, residues 1-85)
Setting: 8-mer, flanks averaged, mean of 2 arrays, mostly near background
Target sequence (chain): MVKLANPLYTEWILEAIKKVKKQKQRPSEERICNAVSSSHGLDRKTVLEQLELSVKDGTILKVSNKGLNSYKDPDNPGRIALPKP
For `AAGGCCAC`, the E-score was -0.0496.
For `GTGCTATA`, the E-score was -0.0929.
For `ATAATACA`, the E-score was -0.1.
The E-score of `GGATTACC` is reported as -0.0101.
`ATCTCCCA` gave an E-score of -0.183.
`CTGCCCTC` gave an E-score of -0.129.
The E-score of `CTCGGCAA` is reported as 0.101.
The E-score of `AAACCCTA` is reported as -0.26.
`CCAGGTTA` gave an E-score of -0.0854.
With `CACGAGTC` the E-score was -0.138.
`GCCACGCC` gave an E-score of 0.168.
`AGAAACGG` has an E-score of 0.135.
With `CATCTACC` the E-score was -0.125.
`AAGTTACG` gave an E-score of 0.0314.
For `CCGCAAGA`, the E-score was 0.101.
With `ACAATCTC` the E-score was 0.0678.
The E-score of `TGAGCTAA` is reported as -0.0803.
For `AAGTACCG`, the E-score was 0.197.
`AACCCACA` gave an E-score of -0.139.
`CTAGGTTA` gave an E-score of -0.092.
The E-score of `CGGTCAGA` is reported as 0.0624.
`CCTGACCA` has an E-score of -0.211.
For `CGAAGACG`, the E-score was 0.125.
`GTGACACA` gave an E-score of 0.0195.
For `GCCACGAC`, the E-score was -0.0249.

Sample 3 — method: RNA Bind-n-Seq; molecule type: RNA; sample: in vitro; concentration: 365 nM; baseline: no-protein control; reading: higher = stronger binding
Target: RNA binding protein fox-1 homolog 2, RRM domain, GST-SBP tag (RBFOX2, Homo sapiens, UniProt O43251-10, residues 100-194)
Setting: natural RNA segment, single round, ends assumed
Constant ends, left off below: GGGAGUUCUACAGUCCGACGAUC … UGGAAUUCUCGGGUGCCAA
Residues (chain): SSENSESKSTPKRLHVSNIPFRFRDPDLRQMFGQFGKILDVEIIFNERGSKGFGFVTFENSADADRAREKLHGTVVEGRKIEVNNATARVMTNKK
For `UAUGUUGUCUGUGUUGUAUUUUUUUUUUUUUAUUGACCAUGGUGAUUAUUUUUUUAAACCAUCGUUAAUAUACUGAAGUGAGCUAUAGCACAUAUCAUGUGCUUAGUUUG`, “RBNS enrichment (R)” read 0.338.
Under “RBNS enrichment (R)”, `ACUAAAGCUACAUCAGGCCUACUAAGCAGGAGCUGGCCUGUUGCCUACCACCCCUAGUAAGCAGGGUAGGAGCAACAGAUUCAAGAUGAGAGAAGUAUGUGUUUGUUUUU` is recorded as 0.416.
`GUAAAAUAUUGAAGUGUCUAACAAAUGGCAUUGAAGUGUCUUUAAUAAAGGUUCAUUUAUAAAUGUCGUAUAGUUGGUGGUCCUUCUUUUACAAACGCAGUCAUUCUGCC` — result for “RBNS enrichment (R)”: 0.245.
Under “RBNS enrichment (R)”, `CUUUAUGCUCCUGUAAUCGGCUAACUGUGGAUUUGAUGUCAAGUAUGCAUGUUACCUUAUGUGUAUUUAAUCAUGAAACUUAAUUUUUGCACACUUGUUUGUACUGUUUU` is recorded as 3.55.
For `ACUAUGCCAUCCUGCAGCUGAAAUGGGAACACUGGCUGCCUCUCCAAACCCGCUCUUGGACAGAGGAUCUGGGAGGUGGAAGCCAGGCCAGAGGACUUGGGGAAAAUGAG`, “RBNS enrichment (R)” read 0.814.
`ACACUCUCUCUGAGGGACUGUAGCUAUUAGAUACUGUCCUCACACCCUCGAGCUACCAGCCAGGGCUCUAAGUUGCUCUCGUGAUCUUAGUUAGAAAUACAGGCUACAGU` — result for “RBNS enrichment (R)”: 0.252.
For `GCCCCCCCACCUCGCCCGGCUCACACCCCCAAAGGGAGGGACCCACAUUGCACACACUGUAAGAAAUGCACUUUCCGAGGAAGGGGAUGGGGGAGCCCGGACACCCAGAG`, “RBNS enrichment (R)” read 0.448.
`AUGAUUUGCAUGAUAUCUUGAAACUGGGGGAAGGGGGCAUGCCAAGUUGGGCAUCACUUCGUCUUAGCAGUUAGUGGAUUACUGAUUACUAAAAUAGGUUAAUAGUAAGC` — result for “RBNS enrichment (R)”: 3.71.

Sample 4 — method: aptamer microarray, sandwich; molecule type: DNA with 2'F-ANA; sample: in vitro; concentration: 200 nM; with: Cy3 exosite-II aptamer, 400 nM; reading: higher = stronger binding; strand: GGTTGGTGTGGTTGG
Target: Prothrombin, mature alpha-thrombin (F2, Homo sapiens, UniProt P00734)
Setting: whole 15-mer aptamer, many near background
`2'F-ANA at 4 6 7 9 10 11 12 14 15` — result for “mean fluorescence intensity”: 57.7 a.u.
`2'F-ANA at 1 3 10 11 12`: “mean fluorescence intensity” 123 a.u.
`2'F-ANA at 1 2 4 5 8 9 11 12 15` — result for “mean fluorescence intensity”: 84 a.u.
For `2'F-ANA at 1 3 4 5 6 7 8 9 10 11 12`, “mean fluorescence intensity” read 56.1 a.u.
`2'F-ANA at 1 2 8 10 11 15` — result for “mean fluorescence intensity”: 52.2 a.u.
`2'F-ANA at 5 6 7 8 11 12 13 14 15` — result for “mean fluorescence intensity”: 49.9 a.u.
Under “mean fluorescence intensity”, `2'F-ANA at 2 3 4 5 11 13` is recorded as 63.9 a.u.
`2'F-ANA at 1 2 3 4 7 9 10 11`: “mean fluorescence intensity” 59.1 a.u.
Under “mean fluorescence intensity”, `2'F-ANA at 1 2 4 8 9 10 11 12 14` is recorded as 49.8 a.u.
For `2'F-ANA at 1 3 5 8 10 14 15`, “mean fluorescence intensity” read 46.1 a.u.
`2'F-ANA at 2 4 6 7 11 13`: “mean fluorescence intensity” 164 a.u.
`2'F-ANA at 1 2 5 10 11 13 14`: “mean fluorescence intensity” 44.7 a.u.
For `2'F-ANA at 2 3 4 6 8 9 13 14 15`, “mean fluorescence intensity” read 192 a.u.
`2'F-ANA at 3 5 7 8 10 12 13`: “mean fluorescence intensity” 63.7 a.u.
For `2'F-ANA at 2 3 5 9 10 11 12 13 14`, “mean fluorescence intensity” read 47.6 a.u.
`2'F-ANA at 2 3 7 9 10 11 12 14` — result for “mean fluorescence intensity”: 267 a.u.
Under “mean fluorescence intensity”, `2'F-ANA at 1 4 6 8 11 12 13 14 15` is recorded as 56.9 a.u.
`2'F-ANA at 2 3 4 5 8 11 13 14 15` — result for “mean fluorescence intensity”: 88.5 a.u.
Under “mean fluorescence intensity”, `2'F-ANA at 1 2 3 4 5 6 10 13 15` is recorded as 95.8 a.u.
For `2'F-ANA at 1 3 5 6 9 12 13 14 15`, “mean fluorescence intensity” read 55.2 a.u.
Under “mean fluorescence intensity”, `2'F-ANA at 1 2 3 5 6 8 10 12 13 14` is recorded as 67.8 a.u.

Some of these lines once more (sample 4):
`2'F-ANA at 1 2 3 4 7 9 10 11`: “mean fluorescence intensity” 59.1 a.u.
Under “mean fluorescence intensity”, `2'F-ANA at 1 2 4 8 9 10 11 12 14` is recorded as 49.8 a.u.
For `2'F-ANA at 1 3 5 8 10 14 15`, “mean fluorescence intensity” read 46.1 a.u.
`2'F-ANA at 2 4 6 7 11 13`: “mean fluorescence intensity” 164 a.u.
`2'F-ANA at 1 2 5 10 11 13 14`: “mean fluorescence intensity” 44.7 a.u.
For `2'F-ANA at 2 3 4 6 8 9 13 14 15`, “mean fluorescence intensity” read 192 a.u.
`2'F-ANA at 3 5 7 8 10 12 13`: “mean fluorescence intensity” 63.7 a.u.
